Measurements of several laboratories.
Each line is one published result; not all experiments were run side by side.
B1: enzyme (Acinetobacter baumannii, UniProt A0A5P1UDB1); chain MFIEQDIQLGYVPFPKSRAQQYRDEGCWKSQTHFQLLASLKDRFAQRVAVIQDDKQLTYQQLYDYAIHYGTYLKQQGIRETDFVLLQSPNVIEVFIVIFGLYAIGARPVFCLHGHGSYEIENIARQSRAVGFLKLCGSANESTATDVCEEFSKPNFKLWFRESIVSRSSIEASLPQLQGVAPAFNLRAQSESEDIAFLQLSGGTTGLPKLIPRTHADYIYSIEKSVDVAGLTQDTKQLVVLPVMHNFCMSSPGFLGVFYVGGTVVLSQLTHPRVCFELIEKYQIQQVSLVPAIATLWLNAESLKDYDLSSLQVVQVGGAKLLPSLAEQIIDTLQVKLQQVYGMAEGLVNFTHLDDSDQITIQTQGKKLSHLDEIRIADQDGNALPINAIGHIQTRGPYTINGYYNLPEINQRAFTQDGFYKTGDIGYLDENLNIVVTGREKEQINRSGEKITPSEIEEFILQYPSVKDVCVIGVSDDYLGERIKAIIIPKLDDSEINLKNIRKFLISKNIAHFKIPDEIEVVADFKYTHVGKVNRQKLG
B2: aspC A106G/A17N/A218G/A278L/A281T/A8Q/D18E/F210I/F212I/F350Y/G15S/G249S/I187A/I279A/I29V/I33V/I341V/I5L/I68L/I71L/L46M/M321L/M380L/N285S/N30D/N64T/S129T/S135A/S273G/S351L/T100S/V125I/V136I/V375I/Y244C (Escherichia coli, UniProt P00509); chain MFENLTAQPADPILSLNELFRADERPGKVDLGVGVYKDETGKTPVMTSVKKAEQYLLENETTKTYLGLDGLPEFGRCTQELLFGKGSALINDKRARTAQSPGGTGGLRVAADFLAKNTSVKRVWISNPTWPNHKAIFNSAGLEVREYAYYDAENHTLDFDALINSLNEAQAGDVVLFHGCCHNPTGADPTLEQWQTLAQLSVEKGWLPLIDIAYQGFGRGLEEDAEGLRAFAAMHKELIVASSCSKNFSLYNERVGACTLVAADSETVDRAFGQMKALARTNYSSPPAHGASVVATILSNDALRAIWEQELTDMRQRIQRLRQLFVNTLQEKGANRDFSFVIKQNGMFSYLGLTKEQVLRLREEFGVYAVASGRINVAGLTPDNMAPLCEAIVAVL
B3: enzyme F197V/V84L (Vanderwaltozyma polyspora, UniProt A7TM80); chain MSVLISGASGYIAKHIVRVLLEQNYKVIGTVRSQDKADKLLKQYNNPNLSYEIVPEIANLDAFDDIFKKHGKEIKYVIHAASPLNFGAKDLEKDLVIPAINGTKNMFEAIKKYAPDTVERVVMTASYASIMTPHRQNDPTLTLDEETWNPVTEENAYENVFTAYCASKTFAEKEAWKFVKENSDAVKFKLTTIHPSVVFGPQNFDEDVTKKLNETCEIINGLLHAPFDTKVEKTHFSQFIDVRDVAKTHVLGFQKDELINQRLLLCNGAFSQQDIVNVFNEDFPELKGQFPPEDKDTDLNKGVTGCKIDNEKTKKLLAFEFTPFHKTIHDTVYQILHKEGRV
B4: GRHPR (Homo sapiens, UniProt Q9UBQ7); chain MRPVRLMKVFVTRRIPAEGRVALARAADCEVEQWDSDEPIPAKELERGVAGAHGLLCLLSDHVDKRILDAAGANLKVISTMSVGIDHLALDEIKKRGIRVGYTPDVLTDTTAELAVSLLLTTCRRLPEAIEEVKNGGWTSWKPLWLCGYGLTQSTVGIIGLGRIGQAIARRLKPFGVQRFLYTGRQPRPEEAAEFQAEFVSTPELAAQSDFIVVACSLTPATEGLCNKDFFQKMKETAVFINISRGDVVNQDDLYQALASGKIAAAGLDVTSPEPLPTNHPLLTLKNCVILPHIGSATHRTRNTMSLLAANNLLAGLRGEPMPSELKL
B5: enzyme (Sulfolobus acidocaldarius, UniProt Q4JAC4); chain MFIISFEGIDGSGKTTISKIIYEKLLIEIGSNKKIILTSEPFSQEIIKLIEEIGWKDPISLALLFTADRAYHLNLLFKQNPEIIIMDRYIDSTIAYQSSLGIDENWIRNLNKYFPEPDLTILLDLKPETAIARIKNKVDKFNFDEKISTLSKVREKYLELAKRNNKIRIVNAEKSIDEIVEETWSIVYSFLNHF
B6: SCO6712 S292F/V290N/Y229F (Streptomyces coelicolor, UniProt Q9XAL8); chain AKGITARTAPAGGEVRHLKMYAEKLADGQMGYGFEKGKASVPGPLIEVNEGDTLHIEFTNTMDVRASLHVHGLDYEISSDGTAMNKSDVEPGGTRTYTWRTHKPGRRDDGTWRPGSAGYWHYHDHVVGTEHGTGGIRNGLYGPVIVRRKGDVLPDATHTIVFNDMTINNRKPHTGPDFEATVGDRVEIVMITHGEFYHTFHMHGHRWADNRTGILTGPDDPSRVIDNKITGPADSFGFQIIAGEGVGAGAWMYHCHNQFHSDMGMVGLFLVKKPDGTIPGYEPHEHGGATAKSGESGEPTGGAAAHEHEH
Sequence of UniProt Q00416 (whole entry, looked up): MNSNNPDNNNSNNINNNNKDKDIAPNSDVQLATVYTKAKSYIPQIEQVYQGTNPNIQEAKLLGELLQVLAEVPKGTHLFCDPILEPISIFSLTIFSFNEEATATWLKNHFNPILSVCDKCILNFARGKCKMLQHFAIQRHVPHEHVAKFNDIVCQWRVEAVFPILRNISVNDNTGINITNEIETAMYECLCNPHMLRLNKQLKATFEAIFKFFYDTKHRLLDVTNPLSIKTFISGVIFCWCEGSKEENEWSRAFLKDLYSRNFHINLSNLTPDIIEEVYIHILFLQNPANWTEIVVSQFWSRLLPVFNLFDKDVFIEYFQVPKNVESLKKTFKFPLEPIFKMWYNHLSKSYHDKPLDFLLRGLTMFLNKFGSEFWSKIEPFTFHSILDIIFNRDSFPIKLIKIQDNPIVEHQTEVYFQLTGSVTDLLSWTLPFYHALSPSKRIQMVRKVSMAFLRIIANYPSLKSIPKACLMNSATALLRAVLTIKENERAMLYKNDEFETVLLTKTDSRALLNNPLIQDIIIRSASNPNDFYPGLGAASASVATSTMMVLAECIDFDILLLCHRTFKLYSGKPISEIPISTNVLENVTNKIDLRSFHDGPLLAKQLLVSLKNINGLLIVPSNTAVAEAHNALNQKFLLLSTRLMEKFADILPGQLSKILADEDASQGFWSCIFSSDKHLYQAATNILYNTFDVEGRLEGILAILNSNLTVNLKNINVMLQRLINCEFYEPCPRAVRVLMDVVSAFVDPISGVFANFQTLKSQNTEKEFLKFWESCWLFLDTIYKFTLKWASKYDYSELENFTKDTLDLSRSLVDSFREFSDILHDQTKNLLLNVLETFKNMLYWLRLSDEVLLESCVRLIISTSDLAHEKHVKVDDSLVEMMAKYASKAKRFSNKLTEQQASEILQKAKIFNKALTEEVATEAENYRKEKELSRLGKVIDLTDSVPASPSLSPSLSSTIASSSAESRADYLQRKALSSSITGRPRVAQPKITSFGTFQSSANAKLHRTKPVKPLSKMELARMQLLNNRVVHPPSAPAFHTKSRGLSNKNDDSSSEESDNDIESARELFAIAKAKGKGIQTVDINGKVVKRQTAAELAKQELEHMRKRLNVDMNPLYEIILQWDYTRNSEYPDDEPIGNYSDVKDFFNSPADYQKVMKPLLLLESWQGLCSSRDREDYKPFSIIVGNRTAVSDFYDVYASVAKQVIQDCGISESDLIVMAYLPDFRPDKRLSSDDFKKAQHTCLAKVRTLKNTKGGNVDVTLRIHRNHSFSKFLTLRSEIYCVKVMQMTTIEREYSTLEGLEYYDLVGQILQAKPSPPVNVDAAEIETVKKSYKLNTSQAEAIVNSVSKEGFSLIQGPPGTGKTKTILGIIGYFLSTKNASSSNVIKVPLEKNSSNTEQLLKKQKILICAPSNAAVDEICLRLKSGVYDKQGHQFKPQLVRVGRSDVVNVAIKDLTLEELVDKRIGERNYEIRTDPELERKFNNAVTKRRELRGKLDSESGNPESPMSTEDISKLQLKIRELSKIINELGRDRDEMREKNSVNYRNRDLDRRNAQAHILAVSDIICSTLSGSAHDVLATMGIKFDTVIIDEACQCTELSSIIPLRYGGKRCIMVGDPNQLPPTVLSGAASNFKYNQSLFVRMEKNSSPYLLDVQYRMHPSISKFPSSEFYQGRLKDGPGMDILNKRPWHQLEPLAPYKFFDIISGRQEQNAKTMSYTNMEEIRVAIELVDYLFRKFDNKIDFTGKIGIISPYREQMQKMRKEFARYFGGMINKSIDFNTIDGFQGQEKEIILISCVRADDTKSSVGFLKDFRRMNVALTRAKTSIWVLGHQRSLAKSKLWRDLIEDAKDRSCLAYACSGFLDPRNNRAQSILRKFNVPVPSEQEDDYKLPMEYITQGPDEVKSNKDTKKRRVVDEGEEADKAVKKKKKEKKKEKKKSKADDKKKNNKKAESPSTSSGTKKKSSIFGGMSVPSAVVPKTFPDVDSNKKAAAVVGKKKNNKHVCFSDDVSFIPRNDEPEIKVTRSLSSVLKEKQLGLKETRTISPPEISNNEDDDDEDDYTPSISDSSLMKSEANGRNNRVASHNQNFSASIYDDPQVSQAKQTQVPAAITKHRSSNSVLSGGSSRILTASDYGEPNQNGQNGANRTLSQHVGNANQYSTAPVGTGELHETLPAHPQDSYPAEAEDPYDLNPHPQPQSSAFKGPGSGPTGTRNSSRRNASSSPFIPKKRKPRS

B1 (enzyme)
Km (O=C(O)c1ccccc1O; steady-state kinetics; pH 7.5, 37 °C, apparent): 71.9 µM

B2
Km (N[C@@H](Cc1ccccc1)C(=O)O; steady-state kinetics; pH 7.5, 25 °C, together with: PMP 20 µM): 1200 µM

SEN1 (Saccharomyces cerevisiae, UniProt Q00416)
Km (Nc1ncnc2c1ncn2[C@@H]1O[C@H](COP(=O)(O)OP(=O)(O)OP(=O)(O)O)[C@@H](O)[C@H]1O; steady-state kinetics; pH 7.5, 28 °C): 26 µM

GGGAGAACUUCGACCAGAAGUUGCAUUCCUGCGCCACAUUACGCGAAACGAUCCCCGCCUAUGUGCGCAUACAUGGAUCCUC (ssRNA; 2'-fluoro pyrimidines)
relative binding (integrin alphaV/beta3 31-992/27-718 (Homo sapiens); SPR; RNA; together with: MnCl2 1 mM; higher = more binding): 90.8 RU

SLLQWVSQV
reporter activation (Jurkat T cells expressing 1G4 TCR; NFAT-eGFP reporter, fluorescence microscopy; peptide; concentration not given, HLA-A*02:01 NY-ESO system): 26%

B3 (enzyme F197V/V84L)
Km (CCO; steady-state kinetics; pH 8, 30 °C, together with: NADP+): 2300 µM

CYP2J2 L2A (Homo sapiens)
Km (CC/C=C\C/C=C\C/C=C\C/C=C\C/C=C\C/C=C\CCC(=O)O; steady-state kinetics): 542 µM

B4 (GRHPR)
Km (O=CC(=O)O; steady-state kinetics; pH 7.5, 37 °C, apparent, together with: NADPH 200 µM): 253 µM

B5 (enzyme)
Km (Cc1cn([C@H]2C[C@H](O)[C@@H](COP(=O)(O)O)O2)c(=O)[nH]c1=O; steady-state kinetics; pH 7.4, 55 °C, together with: ATP 2 mM): 13 µM

enzyme (Staphylococcus aureus, UniProt A0A0H2XHR6)
Km (CC(C)C(=O)O; steady-state kinetics; pH 7.5, 37 °C): 8.9 µM

PKRSFIESNV
binding intensity (human MAGI1-2/6 PDZ construct (MBP fusion); automated holdup; peptide, purified PDZ protein; concentration not given, unit not given; relative to: biotin control resin, higher = stronger binding): 0.284

enzyme Y26F (Homo sapiens, UniProt Q08623)
Km (O=c1[nH]cc([C@@H]2O[C@H](COP(=O)(O)O)[C@@H](O)[C@H]2O)c(=O)[nH]1; steady-state kinetics; pH 7, 25 °C): 2.3 µM

CLTSTVQLIMQ
binding score (HLA class I histocompatibility antigen, A alpha chain, allele A*01:01 (Homo sapiens, UniProt P04439); conformational ELISA; peptide; concentration not given; relative to: positive control peptide, direction not given): 4.2%

GSGAGIESNV
binding intensity (human MAGI1-3/6 PDZ construct (MBP fusion); automated holdup; peptide, crude extract; concentration not given, corrected by standard peak, unit not given; relative to: biotin control resin, higher = stronger binding): 0.0507

B6 (SCO6712 S292F/V290N/Y229F)
Km (CCn1c(=NN=c2sc3cc(S(=O)(=O)O)ccc3n2CC)sc2cc(S(=O)(=O)O)ccc21; steady-state kinetics; pH 7, 37 °C, NaCl 150 mM, together with: O2 cosubstrate): 1000 µM

For quick reference, copied from above:
B3 (enzyme F197V/V84L)
Km (CCO; steady-state kinetics; pH 8, 30 °C, together with: NADP+): 2300 µM

B4 (GRHPR)
Km (O=CC(=O)O; steady-state kinetics; pH 7.5, 37 °C, apparent, together with: NADPH 200 µM): 253 µM
